Measurements gathered from unrelated publications.
Protocols differ between the studies behind these lines.
Observed: metabolic stability

`CC1(C)CC[N+](C)(CC(=O)OC2CCCCCCCCCCC2)CC1.[I-]` gave a half-life of 2.6 min (male CD-1 mouse, liver microsomes; 1 µM, pH 7.4).
`CC(C)Oc1cc(OCCCCCCCCn2ccnc2)ccc1NC(=N)c1ccccn1` gave a half-life of 52 to 68 min (mouse, liver microsomes; 3 µM).
The half-life of `CONC(=O)c1cccc2c1cc(C)n2-c1nc2c(c(NCc3ccccc3)n1)CCCN2` is reported as under 10 min (mouse, liver microsomes; 1 µM, pH 7.4).
With `C[N+]1(CC(=O)OC2CCCCCCCCCCC2)CCCCCC1.[I-]` the half-life was 1.8 min (male CD-1 mouse, liver microsomes; 1 µM, pH 7.4).
`OCCN1CCN(Cc2ccc(-c3cnc4[nH]cc(-c5cccc(Cl)c5)c4c3)cc2)CC1` has a half-life of over 120 min (CD-1 mouse, liver microsomes; 20 µM, pH 7.4).
The half-life of `CC(C)(C)c1ccc(CN(C(=O)CN(C2CC2)S(=O)(=O)c2c(F)c(F)cc(F)c2F)c2ccc(C(=O)O)cc2)cc1` is reported as 38.6 min (male CD-1 mouse, hepatocytes).
For `C[N+]1(CC(=O)OC2CCCCCCCCCCC2)CCSCC1.[I-]`, the half-life was 4 min (male CD-1 mouse, liver microsomes; 1 µM, pH 7.4).
With `CC(C)n1ncc2c(C(=O)NCC3(F)CNC3)cc(C3CC3)nc21` the half-life was at least 70.1 min (mouse, liver microsomes).
`N#C[C@@]1(c2ccc3c(N)ncnn23)O[C@H](CO)[C@@H](O)[C@H]1O` has a half-life of 842 min (CD-1 mouse, liver microsomes; 1 µM, pH 7.4).
For `CC(C)n1ncc2c(C(=O)NC(C)(C)CN)cc(C3CC3)nc21`, the half-life was at least 70.1 min (mouse, liver microsomes).
For `COc1ccc(F)cc1CCC1CCC(CCN)O1` (stereo not shown), the half-life was 56 min (mouse, liver microsomes; 40 µM, pH 7.4).
`CN1CCN(Cc2ccc(-c3cnc4[nH]cc(-c5cccc(Cl)c5)c4c3)cc2)CC1` has a half-life of at least 30 min (CD-1 mouse, liver microsomes; 20 µM, pH 7.4).
For `N=C(Nc1ccc(OCCCCCCCCn2ccnc2)cc1)c1ccccn1`, the half-life was 70 min (mouse, liver microsomes; 3 µM).

For quick reference, copied from above:
`OCCN1CCN(Cc2ccc(-c3cnc4[nH]cc(-c5cccc(Cl)c5)c4c3)cc2)CC1` has a half-life of over 120 min (CD-1 mouse, liver microsomes; 20 µM, pH 7.4).
`CN1CCN(Cc2ccc(-c3cnc4[nH]cc(-c5cccc(Cl)c5)c4c3)cc2)CC1` has a half-life of at least 30 min (CD-1 mouse, liver microsomes; 20 µM, pH 7.4).
